Experimental data of several laboratories.
Every numbered part comes from another study and shows a few of its results, in no order. Substitutions count along the parent as printed.
Chain of UniProt Q15139 (whole entry, looked up): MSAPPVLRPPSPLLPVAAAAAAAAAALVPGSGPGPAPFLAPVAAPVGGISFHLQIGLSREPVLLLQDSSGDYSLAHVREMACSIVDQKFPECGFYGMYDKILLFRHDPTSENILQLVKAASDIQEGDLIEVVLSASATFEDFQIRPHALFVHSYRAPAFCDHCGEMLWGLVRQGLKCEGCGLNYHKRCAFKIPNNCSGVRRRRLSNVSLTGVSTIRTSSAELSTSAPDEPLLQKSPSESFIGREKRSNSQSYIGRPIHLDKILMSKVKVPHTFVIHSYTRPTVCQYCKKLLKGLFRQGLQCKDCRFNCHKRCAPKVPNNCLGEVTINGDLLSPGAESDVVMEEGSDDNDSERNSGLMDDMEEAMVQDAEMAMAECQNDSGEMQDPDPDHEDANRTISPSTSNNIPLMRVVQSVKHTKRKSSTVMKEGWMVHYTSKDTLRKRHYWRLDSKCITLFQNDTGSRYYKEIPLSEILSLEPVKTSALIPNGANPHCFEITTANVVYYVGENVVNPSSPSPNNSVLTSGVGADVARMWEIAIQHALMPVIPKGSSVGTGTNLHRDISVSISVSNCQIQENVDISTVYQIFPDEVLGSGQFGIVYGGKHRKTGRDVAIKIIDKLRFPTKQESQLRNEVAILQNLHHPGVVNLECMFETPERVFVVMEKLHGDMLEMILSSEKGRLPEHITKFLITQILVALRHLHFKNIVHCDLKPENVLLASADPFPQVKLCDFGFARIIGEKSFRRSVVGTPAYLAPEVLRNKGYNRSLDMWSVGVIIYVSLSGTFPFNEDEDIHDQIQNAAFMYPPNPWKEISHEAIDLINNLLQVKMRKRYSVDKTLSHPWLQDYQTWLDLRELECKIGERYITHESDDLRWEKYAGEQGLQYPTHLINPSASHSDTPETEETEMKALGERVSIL
Chain of UniProt P48730 (whole entry, looked up): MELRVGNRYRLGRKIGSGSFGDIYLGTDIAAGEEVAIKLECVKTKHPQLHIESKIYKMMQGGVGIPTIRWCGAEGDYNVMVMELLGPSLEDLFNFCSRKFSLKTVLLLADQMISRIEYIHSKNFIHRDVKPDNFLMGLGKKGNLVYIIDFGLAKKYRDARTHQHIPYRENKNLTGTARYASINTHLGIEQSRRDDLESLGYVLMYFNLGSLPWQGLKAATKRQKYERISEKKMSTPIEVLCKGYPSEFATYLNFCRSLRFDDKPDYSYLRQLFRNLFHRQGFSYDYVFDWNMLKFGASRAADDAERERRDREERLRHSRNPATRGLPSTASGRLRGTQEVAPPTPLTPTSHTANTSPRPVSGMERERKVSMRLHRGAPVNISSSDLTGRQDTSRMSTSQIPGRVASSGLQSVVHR
Chain of UniProt P29320 (whole entry, looked up): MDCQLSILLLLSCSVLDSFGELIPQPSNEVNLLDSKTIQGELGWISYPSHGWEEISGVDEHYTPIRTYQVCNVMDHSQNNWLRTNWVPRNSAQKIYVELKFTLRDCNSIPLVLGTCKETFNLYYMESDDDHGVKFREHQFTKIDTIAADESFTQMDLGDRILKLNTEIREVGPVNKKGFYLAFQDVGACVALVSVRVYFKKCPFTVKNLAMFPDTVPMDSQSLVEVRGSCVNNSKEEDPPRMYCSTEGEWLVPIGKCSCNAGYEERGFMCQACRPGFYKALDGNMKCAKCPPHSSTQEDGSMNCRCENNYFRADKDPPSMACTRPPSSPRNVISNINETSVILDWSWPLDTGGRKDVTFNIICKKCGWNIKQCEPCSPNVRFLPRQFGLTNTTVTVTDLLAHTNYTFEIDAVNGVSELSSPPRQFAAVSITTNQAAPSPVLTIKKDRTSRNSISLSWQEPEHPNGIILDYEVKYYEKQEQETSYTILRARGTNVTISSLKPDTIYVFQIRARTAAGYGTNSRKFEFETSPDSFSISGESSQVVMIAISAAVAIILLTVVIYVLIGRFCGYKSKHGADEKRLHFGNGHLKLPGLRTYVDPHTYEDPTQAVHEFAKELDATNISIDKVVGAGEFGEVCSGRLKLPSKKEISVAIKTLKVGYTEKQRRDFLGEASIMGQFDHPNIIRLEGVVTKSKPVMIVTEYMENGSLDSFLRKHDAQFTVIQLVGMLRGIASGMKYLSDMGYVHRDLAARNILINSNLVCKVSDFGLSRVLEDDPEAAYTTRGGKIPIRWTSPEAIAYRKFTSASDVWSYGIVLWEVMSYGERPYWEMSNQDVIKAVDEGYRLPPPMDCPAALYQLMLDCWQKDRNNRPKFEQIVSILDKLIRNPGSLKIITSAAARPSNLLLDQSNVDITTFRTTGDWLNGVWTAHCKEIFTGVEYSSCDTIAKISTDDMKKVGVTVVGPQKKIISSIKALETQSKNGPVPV
Chain of UniProt P29597 (whole entry, looked up): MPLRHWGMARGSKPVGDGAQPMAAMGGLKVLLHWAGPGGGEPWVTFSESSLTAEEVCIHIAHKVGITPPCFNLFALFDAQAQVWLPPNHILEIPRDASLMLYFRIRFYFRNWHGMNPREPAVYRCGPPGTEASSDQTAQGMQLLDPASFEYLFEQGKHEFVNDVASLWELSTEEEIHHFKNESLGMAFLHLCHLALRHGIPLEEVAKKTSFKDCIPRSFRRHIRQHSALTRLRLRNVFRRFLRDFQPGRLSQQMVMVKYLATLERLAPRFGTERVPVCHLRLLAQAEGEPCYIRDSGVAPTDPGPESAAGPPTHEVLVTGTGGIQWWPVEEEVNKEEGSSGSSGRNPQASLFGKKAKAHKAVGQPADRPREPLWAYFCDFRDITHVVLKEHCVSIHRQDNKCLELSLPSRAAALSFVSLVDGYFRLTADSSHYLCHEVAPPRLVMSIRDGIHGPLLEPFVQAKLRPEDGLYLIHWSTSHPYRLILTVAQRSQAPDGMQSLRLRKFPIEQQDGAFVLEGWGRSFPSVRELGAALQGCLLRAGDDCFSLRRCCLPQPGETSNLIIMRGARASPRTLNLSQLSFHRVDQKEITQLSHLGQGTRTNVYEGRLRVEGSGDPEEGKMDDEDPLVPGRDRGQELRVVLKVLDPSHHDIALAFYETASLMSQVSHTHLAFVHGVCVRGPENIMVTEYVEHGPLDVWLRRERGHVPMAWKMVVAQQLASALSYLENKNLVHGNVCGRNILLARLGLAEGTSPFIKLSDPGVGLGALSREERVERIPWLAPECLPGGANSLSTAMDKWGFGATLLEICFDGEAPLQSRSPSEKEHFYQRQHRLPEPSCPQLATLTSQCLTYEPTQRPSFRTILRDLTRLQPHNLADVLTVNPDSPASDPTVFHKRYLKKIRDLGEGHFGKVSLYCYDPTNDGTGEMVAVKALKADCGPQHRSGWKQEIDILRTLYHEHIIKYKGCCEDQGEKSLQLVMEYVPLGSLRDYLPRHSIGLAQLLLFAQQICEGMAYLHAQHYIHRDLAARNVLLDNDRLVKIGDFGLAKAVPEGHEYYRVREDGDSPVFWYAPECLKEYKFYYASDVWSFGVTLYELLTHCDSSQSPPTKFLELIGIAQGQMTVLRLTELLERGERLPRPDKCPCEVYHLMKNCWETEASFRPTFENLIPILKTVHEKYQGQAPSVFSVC
Chain of UniProt P04629 (whole entry, looked up): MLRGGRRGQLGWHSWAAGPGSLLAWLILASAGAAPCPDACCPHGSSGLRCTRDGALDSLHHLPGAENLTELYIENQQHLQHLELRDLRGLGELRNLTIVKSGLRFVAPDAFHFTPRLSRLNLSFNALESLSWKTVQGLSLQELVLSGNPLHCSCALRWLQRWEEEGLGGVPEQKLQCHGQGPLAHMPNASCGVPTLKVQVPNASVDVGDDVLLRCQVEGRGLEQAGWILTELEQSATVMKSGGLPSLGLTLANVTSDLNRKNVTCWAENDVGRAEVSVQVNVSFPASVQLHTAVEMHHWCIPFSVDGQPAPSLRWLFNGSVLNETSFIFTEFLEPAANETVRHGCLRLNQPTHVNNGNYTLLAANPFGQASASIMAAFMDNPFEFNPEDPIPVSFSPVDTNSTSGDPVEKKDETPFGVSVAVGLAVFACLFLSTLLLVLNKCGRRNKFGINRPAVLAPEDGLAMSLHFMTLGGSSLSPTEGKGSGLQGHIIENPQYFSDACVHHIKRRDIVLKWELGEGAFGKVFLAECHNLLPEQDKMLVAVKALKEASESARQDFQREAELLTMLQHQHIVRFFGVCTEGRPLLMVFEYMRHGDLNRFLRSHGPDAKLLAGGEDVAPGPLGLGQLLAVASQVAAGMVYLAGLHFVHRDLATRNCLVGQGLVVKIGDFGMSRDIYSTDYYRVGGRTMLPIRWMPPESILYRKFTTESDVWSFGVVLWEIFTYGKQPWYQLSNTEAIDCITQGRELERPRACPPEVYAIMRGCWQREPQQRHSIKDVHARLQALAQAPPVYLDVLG

Set 1
Target: ABI1, truncated, D143A, DHFR fusion (Arabidopsis thaliana)
Method: DHFR PCA, deep sequencing
Medium: yeast
Setting: methotrexate growth selection, single substitutions
Together with: (+)-ABA 0.39 µM
Baseline: wild-type fitted maximum
Reading: higher = stronger binding
Parent: PYL1, truncated, DHFR fusion (Arabidopsis thaliana); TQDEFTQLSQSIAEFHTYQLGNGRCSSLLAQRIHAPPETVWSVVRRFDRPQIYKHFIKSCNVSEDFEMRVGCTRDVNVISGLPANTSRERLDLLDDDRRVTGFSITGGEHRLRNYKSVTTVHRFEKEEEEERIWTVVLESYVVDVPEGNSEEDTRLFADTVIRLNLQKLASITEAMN
For `G107Q`, “relative binding score” read 3.37%.
`S150F`: “relative binding score” -34.1%.
For `A170W`, “relative binding score” read -4.72%.
For `S104C`, “relative binding score” read -2.22%.
`R74M`: “relative binding score” -2.39%.
For `S9K`, “relative binding score” read 67.5%.
For `L82S`, “relative binding score” read -0.149%.
Under “relative binding score”, `N61I` is recorded as 58%.

Set 2
Target: Protein C-ets-1, full length (ETS1, Homo sapiens, UniProt P14921, residues 1-441)
Method: protein-binding microarray
Molecule type: hairpin DNA
Medium: in vitro
Tested at: not given
Setting: whole hairpin DNA, median over replicate spots
Baseline: not given
Reading: higher = stronger binding
Construct (chain): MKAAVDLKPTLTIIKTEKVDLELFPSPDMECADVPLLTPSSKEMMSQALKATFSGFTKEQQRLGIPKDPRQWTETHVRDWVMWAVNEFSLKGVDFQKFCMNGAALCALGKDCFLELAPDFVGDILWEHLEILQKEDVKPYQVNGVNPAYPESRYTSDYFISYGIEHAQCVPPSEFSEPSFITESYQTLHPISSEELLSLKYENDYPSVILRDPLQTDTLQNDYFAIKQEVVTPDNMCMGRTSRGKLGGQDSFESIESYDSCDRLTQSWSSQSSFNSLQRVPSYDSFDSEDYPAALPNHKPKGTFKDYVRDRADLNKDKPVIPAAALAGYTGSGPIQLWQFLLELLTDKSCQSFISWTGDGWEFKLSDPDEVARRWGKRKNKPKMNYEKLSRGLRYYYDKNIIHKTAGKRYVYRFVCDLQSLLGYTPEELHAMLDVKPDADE
`GAGGCCAGCCGGTAGTTGCCTCCTGGCAACTACCGGCTGGCCTCACACTC` gave a median fluorescence of 774 a.u.
The median fluorescence of `GAGGCCAATCGGAAGTTGCCTCCTGGCAACTTCCGATTGGCCTCACACTC` is reported as 3980 a.u.
For `GAGGCCAGGCGGAAGTTGCCTCCTGGCAACTTCCGCCTGGCCTCACACTC (5mC at 36)`, the median fluorescence was 5590 a.u.
For `GAGGCCAGCCGCAAGTTGCCTCCTGGCAACTTGCGGCTGGCCTCACACTC`, the median fluorescence was 554 a.u.
The median fluorescence of `GAGGCCAGCCGGAAGTAGCCTCCTGGCTACTTCCGGCTGGCCTCACACTC` is reported as 9150 a.u.
`GAGGCCCGTCGGAAGTTGCCTCCTGGCAACTTCCGACGGGCCTCACACTC (5mC at 7 37)` gave a median fluorescence of 2680 a.u.
With `GAGGCCAGCCGGAAGTTGCCTCCTGGCAACTTCCGGCTGGCCTCACACTC (5mC at 9)` the median fluorescence was 4390 a.u.
The median fluorescence of `GAGGCCAGTCGGCGGTTGCCTCCTGGCAACCGCCGACTGGCCTCACACTC (5mC at 13)` is reported as 552 a.u.

Set 3
Compound: CS(=O)(=O)c1cc(C2(NC(=O)c3cncc4c3cnn4-c3ccc(F)cc3)CC2)ccn1
Read-out: cell-free assay
Method: competition with immobilised ligand
Tested at: 1 µM
For Non-receptor tyrosine-protein kinase TYK2, JH1 (TYK2, Homo sapiens, UniProt P29597): remaining binding read 73%.
It gave 99% for remaining binding (CSNK1D (Homo sapiens, UniProt P48730)).
The remaining binding was 100% (PRKD1 (Homo sapiens, UniProt Q15139)).
It gave 90% for remaining binding (EPHA3 (Homo sapiens, UniProt P29320)).
The remaining binding was 75% (FLT3 (Homo sapiens, UniProt P36888, R834Q)).
For NTRK1 (Homo sapiens, UniProt P04629): remaining binding read 96%.

Set 4
Target: Testis-specific serine/threonine-protein kinase 1 (TSSK1B, Homo sapiens, UniProt Q9BXA7)
Read-out: enzyme activity
Action: inhibitor
Tested at: 0.5 µM
Baseline: control
Residues (Q9BXA7 1-367): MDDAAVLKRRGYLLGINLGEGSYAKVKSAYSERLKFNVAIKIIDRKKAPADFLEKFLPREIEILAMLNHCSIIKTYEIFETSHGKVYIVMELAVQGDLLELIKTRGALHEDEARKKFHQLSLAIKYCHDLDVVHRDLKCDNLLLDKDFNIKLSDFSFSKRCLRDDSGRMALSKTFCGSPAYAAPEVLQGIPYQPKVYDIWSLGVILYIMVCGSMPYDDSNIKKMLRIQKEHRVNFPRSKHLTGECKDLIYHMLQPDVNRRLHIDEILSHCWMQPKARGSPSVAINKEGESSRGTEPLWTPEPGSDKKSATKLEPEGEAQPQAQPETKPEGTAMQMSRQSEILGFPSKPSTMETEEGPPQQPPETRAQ
The remaining activity of `CC(C)[C@H](CO)Nc1nc(Nc2cc(N)cc(Cl)c2)c2ncn(C(C)C)c2n1` is reported as 91.3%.
With `Cc1cccc(-c2[nH]c(C(C)(C)C)nc2-c2ccc3c(c2)OCO3)n1` the remaining activity was 103%.
`Cn1sc(=O)n(Cc2ccccc2)c1=O` has a remaining activity of 94.4%.
The remaining activity of `Cn1c2ccccc2c2c3c(c4c5ccccc5n(CCC#N)c4c21)CNC3=O` is reported as 10.1%.
The remaining activity of `O=C1NC(=O)C(c2cn(CCCn3ccnc3)c3ccccc23)=C1Nc1ccccc1` is reported as 102%.
For `OCC(O)CCON=C1C(c2c(O)[nH]c3ccccc23)=Nc2ccccc21` (centres unmarked), the remaining activity was 76.6%.
For `O=C(Nc1cccc(Nc2cc(Nc3cccc(C(F)(F)F)c3)ncn2)c1)C1CC1`, the remaining activity was 104%.
For `CN(C)c1ccc(C=C2C(=O)Nc3ccccc32)cc1`, the remaining activity was 102%.
`CO[C@H]1C[C@@H]2CC[C@@H](C)[C@@](O)(O2)C(=O)C(=O)N2CCCC[C@H]2C(=O)O[C@H]([C@H](C)C[C@@H]2CC[C@@H](O)[C@H](OC)C2)CC(=O)[C@H](C)/C=C(\C)[C@@H](O)[C@@H](OC)C(=O)[C@H](C)C[C@H](C)/C=C/C=C/C=C/1C` gave a remaining activity of 103%.
`Oc1ccc(-c2nc(-c3ccncc3)c(-c3ccc(F)cc3)[nH]2)cc1` has a remaining activity of 104%.

For quick reference, copied from above (set 4):
`Cn1sc(=O)n(Cc2ccccc2)c1=O` has a remaining activity of 94.4%.
The remaining activity of `CC(C)[C@H](CO)Nc1nc(Nc2cc(N)cc(Cl)c2)c2ncn(C(C)C)c2n1` is reported as 91.3%.
